Earlier results as cited in several papers.
± marks the error that the study gave.

The IC50 of CCN1CCC(CCc2cnc(Nc3cc(-c4cc(F)c5nc(C)n(C(C)C)c5c4)ncn3)cn2)CC1 is reported as 19 µM (CDK4/6; kinase activity, inhibitor).
With c1ccc2c(c1)ccc[n+]2CCCCCCCCCC[n+]1cccc2ccccc21 the Cmax was 100 nM (rat, plasma; intramuscular, 5% of LD50).
CCN1CCN(Cc2ccc(Nc3cc(-c4cc(F)c5nc(C)n(C(C)C)c5c4)ccn3)nc2)CC1 gave an IC50 of 35 µM (CDK4/6; kinase activity, inhibitor).
With CCC(C)NC(=O)CSc1nnc(Nc2ccc(C(C)C)cc2)s1 (centres unmarked) the half-life was > 1.67 h (mouse plasma).
NCCNCCSc1ccccc1 has a freeze-thaw stability of 95.1 ± 2.62 % remaining (plasma; 100 µg/mL, three freeze-thaw cycles).

Some of these lines once more:
CCN1CCN(Cc2ccc(Nc3cc(-c4cc(F)c5nc(C)n(C(C)C)c5c4)ccn3)nc2)CC1 gave an IC50 of 35 µM (CDK4/6; kinase activity, inhibitor).
